Assay results of several laboratories.
A part holds a random share of what one study measured.

Block 1
Target: Sal-like protein 4, full length isoform B (SALL4, Homo sapiens, UniProt Q9UJQ4-2, residues 1-616)
Technique: universal PBM
Form: double-stranded DNA, one strand shown
Medium: in vitro
Tested at: not given
Setting: 8-mer, flanks averaged, mean of replicates
Direction: higher = stronger binding
Endpoint: E-score
Construct (chain): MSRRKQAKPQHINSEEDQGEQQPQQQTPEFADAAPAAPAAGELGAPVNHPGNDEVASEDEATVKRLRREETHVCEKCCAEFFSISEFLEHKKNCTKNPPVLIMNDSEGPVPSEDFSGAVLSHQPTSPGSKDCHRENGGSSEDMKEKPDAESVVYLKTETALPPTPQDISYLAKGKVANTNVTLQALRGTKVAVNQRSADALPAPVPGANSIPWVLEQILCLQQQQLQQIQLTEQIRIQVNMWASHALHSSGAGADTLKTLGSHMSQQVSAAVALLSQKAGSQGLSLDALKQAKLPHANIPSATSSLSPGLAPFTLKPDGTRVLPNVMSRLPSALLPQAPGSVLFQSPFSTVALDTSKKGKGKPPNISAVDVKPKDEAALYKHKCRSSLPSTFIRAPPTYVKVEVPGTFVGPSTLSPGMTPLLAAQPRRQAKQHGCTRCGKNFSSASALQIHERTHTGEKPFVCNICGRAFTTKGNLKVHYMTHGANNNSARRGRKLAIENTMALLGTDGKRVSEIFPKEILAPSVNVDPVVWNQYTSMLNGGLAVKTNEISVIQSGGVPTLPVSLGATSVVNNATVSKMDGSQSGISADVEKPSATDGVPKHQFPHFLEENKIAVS
ATATCAGC: 0.182
CTTACTGC: 0.0345
GCCTACGC: -0.146
TAGTGATA: 0.207
CGAAATAA: 0.239

Block 2
Target: Fragile X messenger ribonucleoprotein 1, C-terminal low-complexity region (Fmr1, Mus musculus, UniProt P35922)
Technique: RNA Bind-n-Seq
Form: RNA
Medium: in vitro
Tested at: 200 nM
Setting: whole 134-nt RNA, ends assumed
With: 150 mM LiCl
Reference: input library
Direction: higher = stronger binding
Endpoint: log2 enrichment
All molecules: 7-deaza-guanosine replaces G
GGGAGUUCUACAGUCCGACGAUCUGGGAGGUGGAUUUUGUUUAUUUUUUUAGCUCAUUUCGAGGGGUGGGAAUUUUUUUUUAAUAUGUGUCAUGAAUAAAGUUGUUUUUGAAAUGGAAUUCUCGGGUGUCAAGG: 0.852
GGGAGUUCUACAGUCCGACGAUCUGUCAUGGAUUCAAGUUAUUAAAAGCAUAAGUUUGGAAGACAGGCUUGCCGAAAUUGAGGACAUGAUUAAAAUUGCAGUGAAGUUUGAAAUGGAAUUCUCGGGUGUCAAGG: -4.51
GGGAGUUCUACAGUCCGACGAUCGUCCUGUGCUACACAUCGUAUGUACCGAAUCGGUUUUUGGGUUUUUGGGGUUUUUGGGAAAGUAUUAUGUUACGCCGUUCGGAUCUGCACUGGAAUUCUCGGGUGUCAAGG: -0.69

Block 3
Target: Interferon regulatory factor 7, full length, phosphomimetic (IRF7, Homo sapiens, UniProt Q92985, residues 1-503, S101K/S471D/S472D/S475D/S476D/S477D/S483D/S484D/S487D)
Technique: protein-binding microarray
Form: double-stranded DNA, one strand shown
Medium: in vitro
Tested at: 250 nM
Setting: 60-bp whole probe
With: salmon DNA 0.4 mg/ml
Reference: random background probes
Direction: higher = stronger binding
Endpoint: log fluorescence
Target sequence (chain): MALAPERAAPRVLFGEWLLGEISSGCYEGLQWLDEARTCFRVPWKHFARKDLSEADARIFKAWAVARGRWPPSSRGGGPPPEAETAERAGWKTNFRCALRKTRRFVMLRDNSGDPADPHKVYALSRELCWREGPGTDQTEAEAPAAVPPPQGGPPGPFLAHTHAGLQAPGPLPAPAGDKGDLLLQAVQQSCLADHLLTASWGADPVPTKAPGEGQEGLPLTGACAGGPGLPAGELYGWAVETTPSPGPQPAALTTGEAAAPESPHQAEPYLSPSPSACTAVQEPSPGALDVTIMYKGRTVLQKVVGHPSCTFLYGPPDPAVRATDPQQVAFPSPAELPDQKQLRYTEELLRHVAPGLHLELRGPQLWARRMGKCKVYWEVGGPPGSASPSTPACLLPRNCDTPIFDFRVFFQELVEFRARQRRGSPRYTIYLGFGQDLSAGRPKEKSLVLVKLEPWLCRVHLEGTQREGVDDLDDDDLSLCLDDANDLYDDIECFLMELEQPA
GCCTAGCACGACGATATCGGGCCTGGAGACGTGCTAGTCTTGATTCGCTTGACGCTGCTG: -0.522 z-score
GCCTAGCACTTAGAACTGGGTACTGGATTAGTGCTAGTCTTGATTCGCTTGACGCTGCTG: -0.238 z-score
GCCTAGCACTTAGGTTTCGGGACTGGGGTAGTGCTAGTCTTGATTCGCTTGACGCTGCTG: 3.4 z-score
GCCTAGCACGACGAACTAAGTCTCGAGACGTGCTAGGTCTTGATTCGCTTGACGCTGCTG: 0.556 z-score

Further values, each from its own experiment
PhoQ, residues 284 288 289 292 302 303 NLCILV — fold induction (PhoP, residues 12 14 15 18 19 LYFRQ (Escherichia coli, UniProt P23836); Sort-seq, measured: YFP reporter; E. coli; PhoQ-PhoP variant library, with: 10 µM Mg2+; reference: high Mg2+ state, higher = stronger signaling): 7.95
